Published values of several laboratories.
Each line is one published result; not all experiments were run side by side.
Organism: Pseudomonas aeruginosa

SMILES | test | test system | setting | how to read | MIC
CC[C@H](C)[C@H](NC(=O)[C@H](CC(C)C)NC(=O)[C@@H](NC(=O)[C@@H](NC(=O)[C@@H](NC(=O)[C@H](CCCCN)NC(=O)[C@H](CCCCN)NC(=O)[C@H](CCCCN)NC(=O)[C@@H](N)CCCCN)C(C)C)[C@@H](C)CC)[C@@H](C)CC)C(=O)N[C@@H](CO)C(=O)N[C@@H](CC(C)C)C(=O)N[C@@H](CCCCN)C(=O)N[C@@H](CCCCN)C(=O)N[C@@H](CCCCN)C(=O)N[C@@H](CCCCN)C(=O)N[C@@H](Cc1ccccc1)C(=O)N[C@@H](CO)C(=O)N[C@@H](C)C(=O)N[C@@H](Cc1ccc(O)cc1)C(N)=O | broth microdilution | ATCC 27853 | highest value reported | – | 8 µM
CC1(C)S[C@@H]2[C@H](NC(=O)[C@H](N)c3ccccc3)C(=O)N2[C@H]1C(=O)O | – | pvcA mutant | – | – | 200 µg/mL
CS(=O)(=O)Nc1ncn(-c2cc(F)c(COc3ccc(OS(=O)(=O)F)cc3)c(F)c2)n1 | – | – | – | – | > 50 µM
CC[C@H](C)[C@H](NC(=O)[C@H](Cc1c[nH]c2ccccc12)NC(=O)[C@@H](NC(=O)[C@H](Cc1ccccc1)NC(=O)[C@@H]1CCCN1C(=O)[C@@H](NC(=O)[C@H](C)N)[C@@H](C)CC)[C@@H](C)CC)C(=O)N[C@@H](Cc1ccccc1)C(=O)N[C@@H](CCCNC(=N)N)C(=O)N[C@@H](CC(C)C)C(=O)N[C@@H](CC(C)C)C(=O)N[C@@H](CCCNC(=N)N)C(=O)N[C@@H](CCCCN)C(=O)NCC(N)=O | broth microdilution | PAO1 | 18 h, 37 °C | – | 15 µM
CC(C)CC1NC(=O)C(C(=O)NC(C(=O)NC2C(=O)N3C2SC(C)(C)C3C(=O)O)c2ccccc2)=C1O (stereo not shown) | – | fptA mutant | – | – | 25 µg/mL
CC[C@H](C)[C@H](N)C(=O)N[C@@H](CCCNC(=N)N)C(=O)N[C@H](C(=O)N[C@@H](Cc1c[nH]c2ccccc12)C(=O)N[C@@H](Cc1c[nH]c2ccccc12)C(=O)N[C@@H](CCCCN)C(=O)N[C@H](C(=O)N[C@H](C(=O)N[C@@H](CCCNC(=N)N)C(=O)N[C@@H](CCCCN)C(=O)N[C@@H](Cc1c[nH]c2ccccc12)C(=O)N[C@@H](CCCCN)C(=O)N[C@@H](C)C(=O)N[C@H](C(=O)N[C@@H](Cc1c[nH]c2ccccc12)C(=O)N[C@@H](Cc1c[nH]cn1)C(N)=O)[C@@H](C)CC)C(C)C)[C@@H](C)CC)C(C)C | broth dilution | ATCC 27853 | – | – | 100 µM
CC1(C)SC2C(NC(=O)C(NC(=O)C3=C(O)C(Cc4ccsc4)NC3=O)c3ccccc3)C(=O)N2C1C(=O)O (stereo not shown) | – | fpvB mutant | – | – | 50 µg/mL
NCCCC1CN(c2ccc3c(n2)NC(=O)CO3)C(=O)O1 (stereo not shown) | – | ATCC 27853 | – | – | 80 µg/mL
CC[C@H](C)[C@H](NC(=O)CN)C(=O)NCC(=O)N[C@@H](C)C(=O)N[C@H](C(=O)N[C@@H](CC(C)C)C(=O)N[C@@H](CCCCN)C(=O)N[C@H](C(=O)N[C@@H](CC(C)C)C(=O)N[C@H](C(=O)N[C@H](C(=O)NCC(=O)N[C@@H](CC(C)C)C(=O)N1CCC[C@H]1C(=O)N[C@@H](C)C(=O)N[C@@H](CC(C)C)C(=O)N[C@H](C(=O)N[C@@H](CO)C(=O)N[C@@H](Cc1c[nH]c2ccccc12)C(=O)N[C@H](C(=O)N[C@@H](CCCCN)C(=O)N[C@@H](CCCNC(=N)N)C(=O)N[C@@H](CCCCN)C(=O)N[C@@H](CCCNC(=N)N)C(=O)N[C@@H](CCC(N)=O)C(=O)N[C@@H](CCC(N)=O)C(N)=O)[C@@H](C)CC)[C@@H](C)CC)[C@@H](C)O)[C@@H](C)O)C(C)C)C(C)C | broth microdilution | 27853, Mueller-Hinton broth | 24 h, 37 °C, lowest concentration, 95% inhibition, together with: BSA | – | 4 µM
CC[C@H](C)[C@H](NC(=O)CNC(=O)[C@H](C)NC(=O)[C@@H](NC(=O)[C@@H](NC(=O)[C@@H](NC(=O)[C@H](CCCNC(=N)N)NC(=O)[C@@H](NC(=O)[C@@H](NC(=O)[C@@H](NC(=O)[C@@H]1CCCN1C(=O)[C@H](Cc1c[nH]c2ccccc12)NC(=O)[C@@H](NC(=O)[C@H](CCCNC(=N)N)NC(=O)[C@H](CCCCN)NC(=O)[C@@H](NC(=O)[C@@H](N)CCCNC(=N)N)[C@@H](C)CC)C(C)C)C(C)C)C(C)C)[C@@H](C)CC)[C@@H](C)O)C(C)C)C(C)C)C(=O)N[C@@H](CC(N)=O)C(=O)N[C@@H](CC(C)C)C(=O)N[C@@H](Cc1ccc(O)cc1)C(=O)N[C@@H](CCCNC(=N)N)C(=O)N[C@@H](C)C(=O)N[C@H](C(=O)N[C@@H](CCCCN)C(=O)N[C@@H](CCCNC(=N)N)C(=O)N[C@@H](CCCCN)C(=O)O)[C@@H](C)CC | broth microdilution | ATCC 27853, Mueller-Hinton broth | 16 to 20 h, 37 °C | – | 2.83 µM
CC[C@H](C)[C@H](NC(=O)[C@H](CC(C)C)NC(=O)[C@H](CCCCN)NC(=O)[C@@H](NC(=O)[C@H](C)NC(=O)[C@H](CCC(=O)O)NC(=O)[C@H](Cc1c[nH]cn1)NC(=O)[C@@H](NC(=O)[C@H](CCCCN)NC(=O)[C@H](CCC(N)=O)NC(=O)[C@H](Cc1ccccc1)NC(=O)[C@@H](NC(=O)[C@H](CCCCN)NC(=O)[C@@H](N)CCCCN)C(C)C)[C@@H](C)CC)[C@@H](C)CC)C(N)=O | CLSI broth microdilution | ATCC 27853 | 18 h, 37 °C | – | 32 µM
CC[C@H](C)[C@H](NC(=O)CNC(=O)[C@H](CC(=O)O)NC(=O)[C@H](CCCNC(=N)N)NC(=O)[C@@H](NC(=O)[C@H](CC(N)=O)NC(=O)[C@H](CCCNC(=N)N)NC(=O)CNC(=O)[C@@H](NC(=O)[C@H](CCCCN)NC(=O)[C@H](CCC(=O)O)NC(=O)[C@@H](NC(=O)[C@H](CCC(=O)O)NC(=O)[C@H](CCCCN)NC(=O)[C@H](Cc1ccccc1)NC(=O)[C@@H](NC(=O)[C@H](CCCCN)NC(=O)[C@H](Cc1c[nH]c2ccccc12)NC(=O)[C@@H](N)CCCNC(=N)N)[C@@H](C)CC)[C@@H](C)CC)C(C)C)C(C)C)C(=O)N[C@H](C(=O)N[C@@H](CCCCN)C(=O)N[C@@H](C)C(=O)NCC(=O)N1CCC[C@H]1C(=O)N[C@@H](C)C(=O)N[C@H](C(=O)N[C@@H](C)C(=O)N[C@H](C(=O)N[C@H](C(=O)NCC(=O)N[C@@H](CCC(N)=O)C(=O)N[C@@H](C)C(=O)N[C@@H](C)C(=O)N[C@H](C(=O)N[C@H](C(=O)N[C@H](C(=O)N[C@@H](CCCCN)C(N)=O)C(C)C)C(C)C)[C@@H](C)O)C(C)C)C(C)C)C(C)C)[C@@H](C)CC | – | KCCM 11328, Mueller-Hinton broth | 16 h, 37 °C | growth inhibition over 99% | 32 µM
CC(C)(C)Oc1ccc(CC2NC(=O)C(C(=O)NC(C(=O)NC3C(=O)N4C3SC(C)(C)C4C(=O)O)c3ccccc3)=C2O)cc1 (stereo not shown) | broth microdilution | TonB-dependent receptor mutant | PA two-allele library | – | 25 µg/mL

For quick reference, copied from above:
SMILES | test | test system | setting | how to read | MIC
CC[C@H](C)[C@H](NC(=O)[C@H](CC(C)C)NC(=O)[C@@H](NC(=O)[C@@H](NC(=O)[C@@H](NC(=O)[C@H](CCCCN)NC(=O)[C@H](CCCCN)NC(=O)[C@H](CCCCN)NC(=O)[C@@H](N)CCCCN)C(C)C)[C@@H](C)CC)[C@@H](C)CC)C(=O)N[C@@H](CO)C(=O)N[C@@H](CC(C)C)C(=O)N[C@@H](CCCCN)C(=O)N[C@@H](CCCCN)C(=O)N[C@@H](CCCCN)C(=O)N[C@@H](CCCCN)C(=O)N[C@@H](Cc1ccccc1)C(=O)N[C@@H](CO)C(=O)N[C@@H](C)C(=O)N[C@@H](Cc1ccc(O)cc1)C(N)=O | broth microdilution | ATCC 27853 | highest value reported | – | 8 µM
